Assay results pooled from the literature.
Lines come from different studies, so protocols differ. ± marks the error that the study gave.
Metallo-beta-lactamase type 2: Metallo-beta-lactamase type 2 (Serratia marcescens, UniProt P52699)
NNMT: Nicotinamide N-methyltransferase (NNMT, Homo sapiens, UniProt P40261)
Chain of UniProt P40261 (whole entry, looked up): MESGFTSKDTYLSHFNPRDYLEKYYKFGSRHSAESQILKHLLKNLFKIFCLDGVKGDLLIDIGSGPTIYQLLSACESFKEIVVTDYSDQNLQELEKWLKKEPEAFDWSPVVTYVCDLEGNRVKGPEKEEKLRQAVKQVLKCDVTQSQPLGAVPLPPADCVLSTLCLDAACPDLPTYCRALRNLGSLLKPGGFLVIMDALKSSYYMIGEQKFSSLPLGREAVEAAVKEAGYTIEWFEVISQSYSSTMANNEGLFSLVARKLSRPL
Chain of UniProt P00772 (whole entry, looked up): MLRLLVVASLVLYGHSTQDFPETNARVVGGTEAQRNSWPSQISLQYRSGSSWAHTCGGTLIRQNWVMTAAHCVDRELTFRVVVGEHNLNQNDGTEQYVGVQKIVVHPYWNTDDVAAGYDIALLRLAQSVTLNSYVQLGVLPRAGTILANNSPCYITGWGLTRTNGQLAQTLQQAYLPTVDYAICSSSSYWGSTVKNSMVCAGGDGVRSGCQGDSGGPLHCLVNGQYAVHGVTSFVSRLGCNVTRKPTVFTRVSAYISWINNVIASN
Chain of UniProt P05067 (whole entry, looked up): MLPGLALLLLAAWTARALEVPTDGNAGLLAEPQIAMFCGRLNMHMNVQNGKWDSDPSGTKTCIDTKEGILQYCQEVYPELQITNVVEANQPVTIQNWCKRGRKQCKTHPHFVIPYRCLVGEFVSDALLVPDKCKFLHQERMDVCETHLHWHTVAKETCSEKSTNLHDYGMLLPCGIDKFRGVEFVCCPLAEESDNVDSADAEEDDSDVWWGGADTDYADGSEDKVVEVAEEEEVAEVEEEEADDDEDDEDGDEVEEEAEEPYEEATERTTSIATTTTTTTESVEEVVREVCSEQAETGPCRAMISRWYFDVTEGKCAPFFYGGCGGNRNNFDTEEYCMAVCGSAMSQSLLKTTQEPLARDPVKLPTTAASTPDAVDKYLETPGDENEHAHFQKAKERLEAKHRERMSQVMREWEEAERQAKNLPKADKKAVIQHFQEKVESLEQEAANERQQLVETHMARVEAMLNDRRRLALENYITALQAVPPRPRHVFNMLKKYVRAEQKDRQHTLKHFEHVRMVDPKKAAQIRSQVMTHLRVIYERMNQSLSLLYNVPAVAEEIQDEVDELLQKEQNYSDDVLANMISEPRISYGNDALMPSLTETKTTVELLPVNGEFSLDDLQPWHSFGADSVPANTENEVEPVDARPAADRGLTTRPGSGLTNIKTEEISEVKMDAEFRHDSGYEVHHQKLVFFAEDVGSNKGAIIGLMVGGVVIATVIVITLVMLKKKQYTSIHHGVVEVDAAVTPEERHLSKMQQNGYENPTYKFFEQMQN
Chain of UniProt P30101 (whole entry, looked up): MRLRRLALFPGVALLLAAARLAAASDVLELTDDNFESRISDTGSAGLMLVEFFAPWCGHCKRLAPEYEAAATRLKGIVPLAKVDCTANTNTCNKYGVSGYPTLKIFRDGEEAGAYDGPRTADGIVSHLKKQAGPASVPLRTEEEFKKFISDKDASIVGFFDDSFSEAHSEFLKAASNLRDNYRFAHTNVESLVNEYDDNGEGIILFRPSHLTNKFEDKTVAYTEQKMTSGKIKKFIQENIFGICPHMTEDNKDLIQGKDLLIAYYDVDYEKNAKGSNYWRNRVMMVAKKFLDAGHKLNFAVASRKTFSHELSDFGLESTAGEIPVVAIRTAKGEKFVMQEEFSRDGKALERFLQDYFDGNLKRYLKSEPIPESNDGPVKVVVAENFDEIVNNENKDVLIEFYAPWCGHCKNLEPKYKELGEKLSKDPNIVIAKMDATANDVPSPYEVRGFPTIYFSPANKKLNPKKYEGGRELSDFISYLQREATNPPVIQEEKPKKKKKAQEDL
Chain of UniProt P16388 (whole entry, looked up): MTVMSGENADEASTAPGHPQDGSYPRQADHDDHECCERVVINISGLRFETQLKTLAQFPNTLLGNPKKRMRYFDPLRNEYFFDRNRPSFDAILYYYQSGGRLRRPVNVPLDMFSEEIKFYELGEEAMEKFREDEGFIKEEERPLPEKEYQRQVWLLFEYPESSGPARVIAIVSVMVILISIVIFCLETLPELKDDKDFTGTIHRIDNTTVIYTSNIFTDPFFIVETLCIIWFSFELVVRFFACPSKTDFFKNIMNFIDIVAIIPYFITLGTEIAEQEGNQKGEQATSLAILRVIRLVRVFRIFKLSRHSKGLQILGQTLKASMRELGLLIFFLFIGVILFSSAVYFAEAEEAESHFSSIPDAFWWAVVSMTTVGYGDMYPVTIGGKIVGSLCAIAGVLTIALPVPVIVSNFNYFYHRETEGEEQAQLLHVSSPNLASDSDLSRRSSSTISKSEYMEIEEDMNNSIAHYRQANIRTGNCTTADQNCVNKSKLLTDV
Chain of UniProt Q86TU7 (whole entry, looked up): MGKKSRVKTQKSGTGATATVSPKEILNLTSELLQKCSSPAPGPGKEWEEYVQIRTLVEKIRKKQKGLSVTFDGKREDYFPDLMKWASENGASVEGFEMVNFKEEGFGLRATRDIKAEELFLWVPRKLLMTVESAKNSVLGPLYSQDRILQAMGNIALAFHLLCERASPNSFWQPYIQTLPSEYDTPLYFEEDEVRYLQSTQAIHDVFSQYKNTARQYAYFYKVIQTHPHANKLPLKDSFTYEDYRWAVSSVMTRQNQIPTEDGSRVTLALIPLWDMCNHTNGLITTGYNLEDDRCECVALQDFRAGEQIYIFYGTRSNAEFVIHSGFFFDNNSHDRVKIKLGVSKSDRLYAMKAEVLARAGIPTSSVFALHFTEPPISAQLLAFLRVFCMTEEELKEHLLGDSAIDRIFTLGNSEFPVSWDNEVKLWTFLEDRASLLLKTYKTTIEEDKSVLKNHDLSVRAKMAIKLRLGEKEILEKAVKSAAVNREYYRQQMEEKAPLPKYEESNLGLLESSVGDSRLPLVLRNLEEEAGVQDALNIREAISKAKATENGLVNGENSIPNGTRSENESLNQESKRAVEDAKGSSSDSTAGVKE
Chain of UniProt Q9H4M9 (whole entry, looked up): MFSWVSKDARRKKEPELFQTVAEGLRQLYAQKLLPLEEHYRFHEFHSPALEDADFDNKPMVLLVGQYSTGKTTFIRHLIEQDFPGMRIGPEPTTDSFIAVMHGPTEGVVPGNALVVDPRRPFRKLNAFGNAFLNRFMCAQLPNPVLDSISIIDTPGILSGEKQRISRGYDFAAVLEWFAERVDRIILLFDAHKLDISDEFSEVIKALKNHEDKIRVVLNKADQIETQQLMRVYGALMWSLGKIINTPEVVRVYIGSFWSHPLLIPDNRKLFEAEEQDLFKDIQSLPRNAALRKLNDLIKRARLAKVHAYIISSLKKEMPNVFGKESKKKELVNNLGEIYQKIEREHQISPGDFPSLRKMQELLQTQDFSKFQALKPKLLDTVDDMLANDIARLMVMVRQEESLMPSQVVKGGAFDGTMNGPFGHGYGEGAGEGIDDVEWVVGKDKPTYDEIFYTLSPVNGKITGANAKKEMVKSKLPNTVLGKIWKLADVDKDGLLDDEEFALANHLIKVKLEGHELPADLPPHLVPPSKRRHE
Chain of UniProt Q13705 (whole entry, looked up): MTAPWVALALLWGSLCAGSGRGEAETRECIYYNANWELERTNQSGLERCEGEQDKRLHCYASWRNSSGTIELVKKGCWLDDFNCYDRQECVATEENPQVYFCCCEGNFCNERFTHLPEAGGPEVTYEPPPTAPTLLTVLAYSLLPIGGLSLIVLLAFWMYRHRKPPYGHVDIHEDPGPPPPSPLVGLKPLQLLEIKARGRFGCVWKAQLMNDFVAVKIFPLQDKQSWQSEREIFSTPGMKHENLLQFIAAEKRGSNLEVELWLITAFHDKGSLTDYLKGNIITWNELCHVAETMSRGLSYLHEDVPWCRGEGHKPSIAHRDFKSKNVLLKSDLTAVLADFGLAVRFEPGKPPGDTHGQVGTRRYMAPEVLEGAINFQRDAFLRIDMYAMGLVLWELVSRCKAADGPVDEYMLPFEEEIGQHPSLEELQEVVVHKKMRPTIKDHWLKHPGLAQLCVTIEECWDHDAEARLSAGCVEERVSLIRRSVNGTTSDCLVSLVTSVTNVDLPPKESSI
Chain of UniProt P28074 (whole entry, looked up): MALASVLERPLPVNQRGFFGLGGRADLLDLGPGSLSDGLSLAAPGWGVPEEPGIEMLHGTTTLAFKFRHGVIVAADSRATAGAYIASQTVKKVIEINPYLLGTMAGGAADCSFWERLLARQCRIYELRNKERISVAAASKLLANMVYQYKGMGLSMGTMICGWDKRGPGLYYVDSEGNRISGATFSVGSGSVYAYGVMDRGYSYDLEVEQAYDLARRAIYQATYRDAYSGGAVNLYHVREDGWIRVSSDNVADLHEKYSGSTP
Chain of UniProt P33261 (whole entry, looked up): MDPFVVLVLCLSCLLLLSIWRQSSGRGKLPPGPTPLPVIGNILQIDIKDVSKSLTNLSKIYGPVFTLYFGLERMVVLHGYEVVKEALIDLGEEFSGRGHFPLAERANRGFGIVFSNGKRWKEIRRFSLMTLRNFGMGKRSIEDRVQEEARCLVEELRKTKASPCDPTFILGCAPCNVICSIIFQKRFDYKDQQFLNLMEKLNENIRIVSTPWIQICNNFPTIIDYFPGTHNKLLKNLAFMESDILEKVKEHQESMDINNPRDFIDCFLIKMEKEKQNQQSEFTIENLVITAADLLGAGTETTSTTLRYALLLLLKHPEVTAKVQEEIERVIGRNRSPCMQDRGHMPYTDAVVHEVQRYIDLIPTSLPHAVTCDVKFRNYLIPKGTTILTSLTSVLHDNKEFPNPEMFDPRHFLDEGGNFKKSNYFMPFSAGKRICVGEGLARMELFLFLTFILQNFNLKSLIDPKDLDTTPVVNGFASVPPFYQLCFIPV
Chain of UniProt P26718 (whole entry, looked up): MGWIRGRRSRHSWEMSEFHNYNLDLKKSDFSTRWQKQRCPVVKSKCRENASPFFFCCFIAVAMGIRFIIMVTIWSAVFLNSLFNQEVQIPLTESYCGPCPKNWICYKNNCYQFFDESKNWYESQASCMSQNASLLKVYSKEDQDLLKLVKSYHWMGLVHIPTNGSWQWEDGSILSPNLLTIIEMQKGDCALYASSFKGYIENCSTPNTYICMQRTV

Compound	target	assay	system	conditions	IC50
O=C(O)c1nccn1Cc1ccccc1	Metallo-beta-lactamase type 2	inhibitor	–	10 min preincubation, with: FC5 fluorogenic substrate	15.2 µM
CC(=O)N[C@@H](CCCNC(=N)N)C(=O)N[C@@H](Cc1ccc(O)cc1)C(=O)N[C@@H](CCCNC(=N)NC(=O)NCCCCN)C(=O)N[C@@H](CC(C)C)C(=O)N[C@@H](CCCNC(=N)N)C(=O)N[C@@H](Cc1ccc(O)cc1)C(=O)O	NPY4R (Homo sapiens, UniProt P50391)	ligand displacement	–	–	> 5 µM
Cc1cccc(-c2nc(Nc3ccncn3)c3sccc3n2)n1	CYP2C19 (Homo sapiens, UniProt P33261)	inhibitor	–	–	31 µM
CC1(C)C=Cc2c(cc3oc(-c4ccccc4)cc(=O)c3c2O)O1	APP (Homo sapiens, UniProt P05067)	amyloid aggregation, inhibitor, fluorescence	–	–	180 µM
CC[C@H](C)[C@@H]1NC(=O)[C@H](C)NC(=O)[C@H](Cc2ccccc2)NC(=O)[C@H](Cc2ccc(O)cc2)NC(=O)CSC[C@@H](C(=O)NCC(N)=O)NC(=O)[C@H](CC(C)C)NC(=O)[C@H](Cc2c[nH]c3ccccc23)NC(=O)[C@H]([C@@H](C)CC)NC(=O)[C@H]([C@@H](C)CC)NC(=O)[C@H](CCCCN)NC(=O)[C@H](Cc2c[nH]c3ccccc23)NC(=O)[C@H](CCCNC(=N)N)NC(=O)[C@H](CO)NC(=O)[C@H](CC(N)=O)NC(=O)[C@H](CCCCN)NC(=O)[C@H]([C@@H](C)O)NC(=O)[C@H]([C@@H](C)CC)NC1=O	NNMT	enzyme activity, inhibitor, mass spectrometry	–	–	1.13 µM
CN(C)C(=O)[C@@H](NC(=O)c1cnccc1-c1ccc(C(F)(F)F)cc1)c1cc(Cl)cc(C(F)(F)F)c1	NKG2-D type II integral membrane protein, with ULBP6 (KLRK1, Homo sapiens, UniProt P26718)	ligand binding, inhibitor, TR-FRET	HEK293 expressing NKG2D and DAP10	with: ULBP6-AF647	0.2 ± 0.1 µM
C=C(NC(=O)C(=C)NC(=O)c1csc(C2=NC3c4csc(n4)C4NC(=O)c5csc(n5)C(C(C)(O)C(C)O)NC(=O)C5CSC(=N5)C(=CC)NC(=O)C(C(C)O)NC(=O)c5csc(n5)C3(CC2)NC(=O)C(C)NC(=O)C(=C)NC(=O)C(C(C)CC)NC2C=Cc3c(C(C)O)cc(nc3C2O)C(=O)OC4C)n1)C(N)=O (centres unmarked)	PSMB5 (Homo sapiens, UniProt P28074)	chymotrypsin-like activity, inhibitor	purified human 20S proteasome	37 °C, 15 min preincubation, with: Suc-Leu-Leu-Val-Tyr-AMC	6.3 ± 0.4 µM
CN[C@H](CC(C)C)C(=O)N[C@H]1C(=O)N[C@@H](CC(N)=O)C(=O)N[C@H]2C(=O)N[C@H]3C(=O)N[C@H](C(=O)N[C@H](C(=O)O)c4cc(O)cc(O)c4-c4cc3ccc4O)[C@H](O)c3ccc(c(Cl)c3)Oc3cc2cc(c3O[C@@H]2O[C@H](CO)[C@@H](O)[C@H](O)[C@H]2O[C@H]2C[C@](C)(NCc3ccc(C(=O)OCCCCCCN(Cc4ccccn4)Cc4ccccn4)cc3)[C@H](O)[C@H](C)O2)Oc2ccc(cc2Cl)[C@H]1O	Metallo-beta-lactamase type 2	enzyme activity, inhibitor, fluorescence	–	–	1.2 ± 0.2 µM
CNC(=O)C1CCN(c2ccccc2NC(=O)c2ccc(-c3cc(O)ccc3C)c(C)n2)CC1	EPHB2 (Homo sapiens, UniProt P29323)	target engagement in cells, BRET	–	–	0.0052 µM
CC[C@H](C)[C@@H]1NC(=O)[C@H](CC(C)C)NC(=O)[C@H](C)NC(=O)[C@H](CCCNC(=N)N)NC(=O)[C@H](CC(C)C)NC(=O)[C@H]([C@@H](C)O)NC(=O)[C@H](CCCNC(=N)N)NC(=O)[C@@H]2CCCN2C(=O)[C@H](Cc2c[nH]cn2)NC(=O)[C@H](CC(C)C)NC(=O)[C@H]([C@@H](C)CC)NC(=O)[C@H]([C@@H](C)CC)NC(=O)[C@H](Cc2ccccc2)NC(=O)[C@H](Cc2ccc(O)cc2)NC(=O)CSC[C@@H](C(=O)NCC(N)=O)NC(=O)[C@H]([C@@H](C)CC)NC(=O)[C@H](C(C)C)NC1=O	NNMT	enzyme activity, inhibitor, mass spectrometry	–	–	0.772 µM
Nc1nc2nc3nc(N)sc3cc2s1	Genome polyprotein, 3C protease (Human hepatitis A virus genotype IB, UniProt P08617)	enzyme activity, inhibitor	–	–	0.9 ± 0.1 µM
CC[C@H](C)[C@H](NC(=O)[C@H](CC(=O)O)NC(=O)[C@H](CCCNC(=N)N)NC(=O)[C@H](Cc1c[nH]c2ccccc12)NC(=O)[C@@H](NC(=O)[C@H](CO)NC(=O)[C@H](CC(N)=O)NC(=O)[C@H](CC(N)=O)NC(=O)[C@@H](NC(=O)[C@H](CCCNC(=N)N)NC(=O)[C@H](Cc1c[nH]cn1)NC(=O)[C@@H](N)CCCNC(=N)N)[C@@H](C)CC)[C@@H](C)CC)C(=O)N[C@@H](Cc1ccccc1)C(=O)N[C@@H](CC(C)C)C(=O)N[C@@H](CCCCN)C(=O)N[C@@H](CCCNC(=N)N)C(=O)N[C@@H](CCCCN)C(=O)O	Sensor histidine kinase ComD (Streptococcus gordonii, UniProt O33646)	–	–	–	> 1 µM
CC(NC(=O)c1ccncc1)C(=O)N1CCCC1B(O)O (centres unmarked)	APEH (Homo sapiens, UniProt P13798)	enzyme activity, inhibitor, fluorescence	–	–	0.104 µM
CC[N+](CC)(CC)CC	Potassium channel protein kcv, L70A in two subunits (A250R, Paramecium bursaria Chlorella virus 1, UniProt Q84568, L70A)	–	–	–	1300 ± 200 µM
COc1ccccc1[C@@H](NS(=O)(=O)c1cc2ccc(O)nc2cc1Cl)C(=O)N(CC(=O)NCCn1cc(COCCOCCOCCOCC(=O)N[C@H](C(=O)N2C[C@H](O)C[C@H]2C(=O)NCc2ccc(-c3scnc3C)cc2)C(C)(C)C)nn1)Cc1cccs1	OGT (Homo sapiens, UniProt O15294)	enzyme activity, inhibitor, fluorescence	–	–	0.27 µM
CC(C)(C)c1ccc(NC(=O)NCCC[C@H](CNCc2ccccc2)C[C@H]2O[C@@H](n3cnc4c(N)ncnc43)[C@H](O)[C@@H]2O)cc1	Actin-histidine N-methyltransferase (SETD3, Homo sapiens, UniProt Q86TU7)	enzyme activity, inhibitor, radiometric	–	–	> 50 µM
CC(C)Cn1nnc(-c2ccccc2NC(=O)[C@H](C)CS)n1	Metallo-beta-lactamase type 2	inhibitor	–	10 min preincubation, with: FC5 substrate	1.34 µM
CC[C@H](C)[C@H](NC(=O)[C@H](CO)NC(=O)[C@H](Cc1ccc(O)cc1)NC(=O)[C@H](CC(=O)O)NC(=O)[C@H](CO)NC(=O)[C@@H](NC(=O)[C@H](Cc1ccccc1)NC(=O)[C@@H](NC(=O)CNC(=O)[C@@H]1CCCN1C(=O)[C@H](C)NC(=O)[C@@H](N)Cc1ccc(O)cc1)[C@@H](C)O)[C@@H](C)CC)C(=O)N[C@@H](C)C(=O)N[C@@H](CCSC)C(=O)N[C@@H](CC(=O)O)C(=O)N[C@@H](CCCCN)C(=O)N[C@H](C(=O)N[C@@H](CCCNC(=N)N)C(=O)N[C@@H](CCC(N)=O)C(=O)N[C@@H](CCC(N)=O)C(=O)N[C@@H](CC(=O)O)C(=O)N[C@@H](Cc1ccccc1)C(=O)N[C@H](C(=O)N[C@@H](CC(N)=O)C(=O)N[C@@H](Cc1c[nH]c2ccccc12)C(=O)N[C@@H](CC(C)C)C(=O)N[C@@H](CC(C)C)C(=O)N[C@@H](C)C(=O)N[C@@H](CCC(N)=O)C(=O)N[C@@H](CCCNC(=N)N)C(=O)NCC(=O)N[C@@H](CCCCN)C(=O)N[C@@H](CCCCN)C(=O)N[C@@H](CO)C(=O)N[C@@H](CC(=O)O)C(=O)N[C@@H](Cc1c[nH]c2ccccc12)C(=O)N[C@@H](CCCCN)C(=O)N[C@@H](Cc1c[nH]cn1)C(=O)N[C@@H](CC(N)=O)C(=O)N[C@H](C(=O)N[C@H](C(=O)N[C@@H](CCC(N)=O)C(=O)O)[C@@H](C)O)[C@@H](C)CC)C(C)C)[C@@H](C)CC	Gastric inhibitory polypeptide receptor (Rattus norvegicus, UniProt P43219)	ligand displacement in cells, radioligand	–	–	0.00794 µM
NC(=O)C1CN1S(=O)(=O)c1ccc(C(F)(F)F)cc1 (centres unmarked)	PDIA3 (Homo sapiens, UniProt P30101)	enzyme activity, inhibitor, absorbance	–	pH 7.6	> 200 µM
C#CCCC(=O)N[C@H]1CSCc2cccc(c2)CSCCNC(=O)[C@H](CCC(=O)O)NC(=O)[C@H](CCC(=O)O)NC(=O)[C@H](Cc2ccccc2)NC(=O)[C@@H]2CCCN2C(=O)[C@H](CC(N)=O)NC1=O	EH domain-containing protein 1, EH domain (Homo sapiens, UniProt Q9H4M9)	–	–	–	88.1 ± 1.5 µM
Cn1nnnc1-c1cccc(NC(=O)CCS)c1	Metallo-beta-lactamase type 2	inhibitor	–	10 min preincubation, with: FC5 substrate	1.54 µM
NC[C@@H]1O[C@H](O[C@H]2[C@@H](O)[C@H](O[C@@H]3[C@@H](O)[C@H](N)C[C@H](N)[C@H]3O[C@H]3O[C@H](CN)[C@@H](O)[C@H](O)[C@H]3N)O[C@@H]2Cn2cc(CCCCCCc3cn(C[C@H]4O[C@@H](O[C@@H]5[C@@H](O)[C@H](N)C[C@H](N)[C@H]5O[C@H]5O[C@H](CN)[C@@H](O)[C@H](O)[C@H]5N)[C@H](O)[C@@H]4O[C@H]4O[C@@H](CN)[C@@H](O)[C@H](O)[C@H]4N)nn3)nn2)[C@H](N)[C@@H](O)[C@@H]1O	HIV-1 TAR RNA	ethidium displacement	–	pH 6.8	0.097 µM
CC[C@H](C)[C@@H]1NC(=O)[C@H]([C@@H](C)O)NC(=O)CNC(=O)[C@H](CCCNC(=N)N)NC(=O)[C@H](CC(C)C)NC(=O)[C@@H]2CSSC[C@H](NC1=O)C(=O)N[C@H](C(=O)N[C@@H](CO)C(=O)NCC(N)=O)CSSC[C@H](NC(=O)[C@H](C)N)C(=O)N[C@@H](C)C(=O)N[C@@H](Cc1c[nH]c3ccccc13)C(=O)N2	CELA1 (Sus scrofa, UniProt P00772)	enzyme activity, inhibitor, absorbance	–	pH 7.4	274 µM
CNC(=O)NC(=N)NCCC[C@@H]1NC(=O)[C@@H](CO)NC(=O)C[C@@H](C(=O)O)NC(=O)C[C@@H](C(=O)O)NC(=O)[C@H](Cc2ccccc2)N(C)C1=O	Endochitinase B1 (Aspergillus fumigatus, UniProt Q873X9)	enzyme activity, inhibitor, fluorometric	–	10 min, pH 5.5, 37 °C, with: 20 µM 4-MU-chitobiose	0.28 µM
CC[C@@H]1NC(=O)[C@@H]2CSSC[C@@H]3NC(=O)[C@H](CCCCN)NC(=O)[C@@H]4CSSC[C@H](NC(=O)[C@H](CC(=O)O)NC(=O)[C@H](CCCCN)NC(=O)[C@@H]5CCCN5C(=O)[C@H]([C@@H](C)O)NC(=O)[C@H](CCCNC(=N)N)NC(=O)[C@@H](NC(=O)[C@H](CO)NC(=O)[C@H](C)N)CSSC[C@H](NC(=O)[C@H](CCCCN)NC(=O)CNC(=O)[C@H](Cc5ccc(O)cc5)NC(=O)[C@@H]5CCCN5C(=O)[C@H](CSSC[C@@H](C(N)=O)NC(=O)[C@H](CCCNC(=N)N)NC(=O)[C@H](CC(N)=O)NC3=O)NC(=O)CNC(=O)[C@H]([C@@H](C)O)NC(=O)[C@H](CCC(=O)O)NC(=O)[C@H](CCCCN)NC1=O)C(=O)N[C@@H](CCSC)C(=O)N[C@@H](CC(N)=O)C(=O)N[C@@H](CCCNC(=N)N)C(=O)N[C@@H](CCCCN)C(=O)N4)C(=O)N[C@@H](C)C(=O)N[C@@H](CC(=O)O)C(=O)N1CCC[C@H]1C(=O)N2	Potassium voltage-gated channel subfamily A member 1 (Kcna1, Mus musculus, UniProt P16388)	potassium current, blocker, whole-cell patch clamp	L929 cells expressing mouse Kv1.1	–	> 0.1 µM
CC[C@H](C)[C@@H]1NC(=O)[C@H](CCCNC(=N)N)NC(=O)[C@@H]2CCCN2C(=O)[C@H](C(C)C)NC(=O)[C@H](CO)NC(=O)[C@H]([C@@H](C)O)NC(=O)CNC(=O)[C@H](CC(=O)O)NC(=O)[C@@H](NC(=O)[C@@H](N)C(C)C)CSSC[C@@H](C(=O)N[C@H](C(=O)O)C(C)C)NC1=O	ACVR2B (Homo sapiens, UniProt Q13705)	Smad2/3 reporter gene, antagonist	HEK-293T	4 h, with: myostatin 1 ng/mL	> 100 µM

Repeated from above:
Compound	target	assay	system	conditions	IC50
O=C(O)c1nccn1Cc1ccccc1	Metallo-beta-lactamase type 2	inhibitor	–	10 min preincubation, with: FC5 fluorogenic substrate	15.2 µM
CNC(=O)C1CCN(c2ccccc2NC(=O)c2ccc(-c3cc(O)ccc3C)c(C)n2)CC1	EPHB2 (Homo sapiens, UniProt P29323)	target engagement in cells, BRET	–	–	0.0052 µM
